Published values from different studies.
Every numbered part comes from another study and shows a few of its results, in no order. “And” joins repeats or separate records; there may be more than shown.
Chain of UniProt Q96NX5 (whole entry, looked up): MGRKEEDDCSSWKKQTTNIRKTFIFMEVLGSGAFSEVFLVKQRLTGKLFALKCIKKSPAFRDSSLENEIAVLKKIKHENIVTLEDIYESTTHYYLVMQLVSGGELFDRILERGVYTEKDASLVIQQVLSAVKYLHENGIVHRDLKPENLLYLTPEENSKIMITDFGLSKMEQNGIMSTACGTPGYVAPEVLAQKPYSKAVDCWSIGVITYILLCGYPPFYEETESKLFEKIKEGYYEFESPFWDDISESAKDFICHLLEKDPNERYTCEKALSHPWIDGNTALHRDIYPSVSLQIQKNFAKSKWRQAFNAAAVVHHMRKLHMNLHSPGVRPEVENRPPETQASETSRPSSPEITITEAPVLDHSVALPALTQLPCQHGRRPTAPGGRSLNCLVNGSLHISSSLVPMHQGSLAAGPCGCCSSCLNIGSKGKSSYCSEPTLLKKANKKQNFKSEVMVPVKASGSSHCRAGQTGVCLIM
Chain of UniProt Q8IU85 (whole entry, looked up): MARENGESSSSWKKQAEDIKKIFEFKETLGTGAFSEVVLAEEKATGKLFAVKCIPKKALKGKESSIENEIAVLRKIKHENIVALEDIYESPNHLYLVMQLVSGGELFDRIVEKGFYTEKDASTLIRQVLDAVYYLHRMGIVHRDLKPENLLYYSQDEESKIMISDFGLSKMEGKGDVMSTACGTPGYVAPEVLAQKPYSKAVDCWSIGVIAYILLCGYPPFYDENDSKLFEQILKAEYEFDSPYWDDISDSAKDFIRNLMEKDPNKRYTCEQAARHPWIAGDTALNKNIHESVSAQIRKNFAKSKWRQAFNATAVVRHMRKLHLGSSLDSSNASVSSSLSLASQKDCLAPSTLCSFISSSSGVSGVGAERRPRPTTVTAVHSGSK
Chain of UniProt Q15139 (whole entry, looked up): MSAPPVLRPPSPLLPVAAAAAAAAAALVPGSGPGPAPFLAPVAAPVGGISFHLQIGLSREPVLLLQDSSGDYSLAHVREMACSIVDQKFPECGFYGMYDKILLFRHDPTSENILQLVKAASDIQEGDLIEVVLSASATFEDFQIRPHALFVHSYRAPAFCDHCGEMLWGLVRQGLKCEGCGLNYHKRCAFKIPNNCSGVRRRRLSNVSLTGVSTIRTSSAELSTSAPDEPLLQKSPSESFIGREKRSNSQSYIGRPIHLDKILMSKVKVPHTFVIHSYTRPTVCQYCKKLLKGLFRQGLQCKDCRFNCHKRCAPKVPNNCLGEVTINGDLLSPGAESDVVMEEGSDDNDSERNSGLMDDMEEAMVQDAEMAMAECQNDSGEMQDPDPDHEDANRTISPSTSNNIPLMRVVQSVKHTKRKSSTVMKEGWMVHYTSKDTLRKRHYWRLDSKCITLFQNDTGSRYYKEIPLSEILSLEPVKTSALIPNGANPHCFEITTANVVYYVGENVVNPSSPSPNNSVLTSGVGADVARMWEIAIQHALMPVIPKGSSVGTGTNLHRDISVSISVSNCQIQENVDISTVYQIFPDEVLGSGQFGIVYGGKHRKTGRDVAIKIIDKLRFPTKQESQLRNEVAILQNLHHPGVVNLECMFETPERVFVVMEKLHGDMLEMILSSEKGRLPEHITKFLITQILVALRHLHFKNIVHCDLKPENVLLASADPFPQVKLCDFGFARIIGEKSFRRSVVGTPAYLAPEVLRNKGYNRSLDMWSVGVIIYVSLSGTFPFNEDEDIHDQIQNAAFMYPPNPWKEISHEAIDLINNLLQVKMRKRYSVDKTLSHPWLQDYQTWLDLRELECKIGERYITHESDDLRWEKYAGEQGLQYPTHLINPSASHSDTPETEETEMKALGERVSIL
Chain of UniProt Q07912 (whole entry, looked up): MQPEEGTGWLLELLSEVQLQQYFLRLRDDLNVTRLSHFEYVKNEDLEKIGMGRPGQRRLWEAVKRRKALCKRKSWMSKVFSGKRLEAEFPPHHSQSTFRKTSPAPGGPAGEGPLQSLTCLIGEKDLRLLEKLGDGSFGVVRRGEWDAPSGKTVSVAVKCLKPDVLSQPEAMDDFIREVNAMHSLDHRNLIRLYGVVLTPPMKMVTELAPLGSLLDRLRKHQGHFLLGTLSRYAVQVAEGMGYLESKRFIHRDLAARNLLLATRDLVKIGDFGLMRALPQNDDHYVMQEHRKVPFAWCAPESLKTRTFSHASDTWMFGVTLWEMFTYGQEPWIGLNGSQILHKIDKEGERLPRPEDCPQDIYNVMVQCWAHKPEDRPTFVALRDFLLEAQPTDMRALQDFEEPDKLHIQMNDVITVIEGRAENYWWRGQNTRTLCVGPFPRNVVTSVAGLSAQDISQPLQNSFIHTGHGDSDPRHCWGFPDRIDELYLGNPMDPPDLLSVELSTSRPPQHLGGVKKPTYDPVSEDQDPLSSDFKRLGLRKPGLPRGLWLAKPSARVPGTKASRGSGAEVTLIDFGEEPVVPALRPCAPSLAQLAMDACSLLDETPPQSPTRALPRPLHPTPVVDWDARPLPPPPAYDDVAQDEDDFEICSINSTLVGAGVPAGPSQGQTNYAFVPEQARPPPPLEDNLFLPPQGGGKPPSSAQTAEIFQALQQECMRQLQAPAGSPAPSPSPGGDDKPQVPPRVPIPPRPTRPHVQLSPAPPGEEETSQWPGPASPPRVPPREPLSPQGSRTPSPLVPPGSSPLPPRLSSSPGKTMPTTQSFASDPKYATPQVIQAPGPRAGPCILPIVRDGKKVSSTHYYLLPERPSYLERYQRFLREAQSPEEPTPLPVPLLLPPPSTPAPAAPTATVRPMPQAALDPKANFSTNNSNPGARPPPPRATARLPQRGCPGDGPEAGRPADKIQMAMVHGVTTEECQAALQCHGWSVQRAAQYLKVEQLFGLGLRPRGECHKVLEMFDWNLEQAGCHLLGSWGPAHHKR
Chain of UniProt Q9H2G2 (whole entry, looked up): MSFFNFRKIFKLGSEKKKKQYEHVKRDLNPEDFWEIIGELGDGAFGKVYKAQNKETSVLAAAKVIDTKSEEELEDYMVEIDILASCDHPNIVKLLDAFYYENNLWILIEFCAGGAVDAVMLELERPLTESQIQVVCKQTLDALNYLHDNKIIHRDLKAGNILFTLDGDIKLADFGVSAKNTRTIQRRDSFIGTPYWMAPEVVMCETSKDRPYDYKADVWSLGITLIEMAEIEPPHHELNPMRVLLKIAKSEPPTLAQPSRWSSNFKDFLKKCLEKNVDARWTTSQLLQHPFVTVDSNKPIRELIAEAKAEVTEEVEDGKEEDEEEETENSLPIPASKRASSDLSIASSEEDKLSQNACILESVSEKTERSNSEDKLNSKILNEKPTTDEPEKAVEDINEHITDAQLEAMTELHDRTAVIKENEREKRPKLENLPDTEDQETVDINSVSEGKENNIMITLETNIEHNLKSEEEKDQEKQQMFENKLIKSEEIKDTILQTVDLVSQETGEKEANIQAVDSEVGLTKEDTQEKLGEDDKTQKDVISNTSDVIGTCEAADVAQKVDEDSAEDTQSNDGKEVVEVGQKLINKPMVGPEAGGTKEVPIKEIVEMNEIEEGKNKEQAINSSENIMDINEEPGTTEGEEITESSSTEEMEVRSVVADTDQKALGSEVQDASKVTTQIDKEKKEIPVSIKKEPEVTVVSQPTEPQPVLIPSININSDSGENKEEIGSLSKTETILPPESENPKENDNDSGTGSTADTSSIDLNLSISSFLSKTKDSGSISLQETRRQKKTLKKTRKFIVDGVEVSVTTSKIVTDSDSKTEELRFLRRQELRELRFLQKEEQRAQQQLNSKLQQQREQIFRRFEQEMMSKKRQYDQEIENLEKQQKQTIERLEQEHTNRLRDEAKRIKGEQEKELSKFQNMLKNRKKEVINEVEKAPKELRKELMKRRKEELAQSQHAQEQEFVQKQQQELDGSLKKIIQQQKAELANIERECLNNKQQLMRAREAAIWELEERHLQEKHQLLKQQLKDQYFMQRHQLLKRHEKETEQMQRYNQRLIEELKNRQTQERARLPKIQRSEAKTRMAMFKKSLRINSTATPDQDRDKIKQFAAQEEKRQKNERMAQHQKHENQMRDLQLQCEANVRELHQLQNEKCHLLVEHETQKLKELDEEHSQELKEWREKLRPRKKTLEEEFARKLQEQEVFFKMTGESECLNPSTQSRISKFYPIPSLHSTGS
Chain of UniProt Q09013 (whole entry, looked up): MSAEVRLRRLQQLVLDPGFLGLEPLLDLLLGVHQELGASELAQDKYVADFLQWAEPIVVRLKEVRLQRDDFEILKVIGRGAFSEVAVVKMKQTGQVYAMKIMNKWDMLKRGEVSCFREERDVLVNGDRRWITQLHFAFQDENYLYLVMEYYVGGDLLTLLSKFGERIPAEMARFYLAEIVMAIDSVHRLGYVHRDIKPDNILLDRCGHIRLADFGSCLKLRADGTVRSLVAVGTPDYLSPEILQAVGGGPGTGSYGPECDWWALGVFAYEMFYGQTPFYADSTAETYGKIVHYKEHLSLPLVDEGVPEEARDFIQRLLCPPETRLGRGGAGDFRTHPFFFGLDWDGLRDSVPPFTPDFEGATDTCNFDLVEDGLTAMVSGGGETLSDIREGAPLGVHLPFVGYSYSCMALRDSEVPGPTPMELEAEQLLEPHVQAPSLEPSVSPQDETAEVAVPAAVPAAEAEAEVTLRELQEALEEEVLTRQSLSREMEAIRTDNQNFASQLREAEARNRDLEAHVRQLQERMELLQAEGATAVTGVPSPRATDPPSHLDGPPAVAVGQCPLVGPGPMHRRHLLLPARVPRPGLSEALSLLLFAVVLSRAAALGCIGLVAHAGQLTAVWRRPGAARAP
Chain of UniProt P19784 (whole entry, looked up): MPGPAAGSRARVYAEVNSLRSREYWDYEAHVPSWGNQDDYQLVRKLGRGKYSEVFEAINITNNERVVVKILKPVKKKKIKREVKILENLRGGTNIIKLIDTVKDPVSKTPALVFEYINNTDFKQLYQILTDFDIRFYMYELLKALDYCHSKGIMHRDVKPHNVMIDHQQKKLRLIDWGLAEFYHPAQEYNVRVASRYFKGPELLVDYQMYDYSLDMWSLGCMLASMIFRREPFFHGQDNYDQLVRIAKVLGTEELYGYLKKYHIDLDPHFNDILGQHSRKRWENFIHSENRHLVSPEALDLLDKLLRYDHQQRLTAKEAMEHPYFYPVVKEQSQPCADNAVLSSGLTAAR

Series 1
Structure (SMILES): CCOc1ccc(Nc2c3c(nc4ccccc24)CCC3)cc1
Organism: Leishmania donovani
Strain: DD8
Medium: promastigotes
setting	promastigote number
66.66 µM, 72 h	1250 and 1550
0.16 µM, 48 h	4.37e+06 and 4.33e+06
16.66 µM, 72 h	1570 and 1250
0.16 µM, 72 h	9.76e+06 and 9.85e+06
1.66 µM, 48 h	4.37e+06 and 4.33e+06
3.33 µM, 48 h	2.25e+06 and 2.22e+06
6.66 µM, 48 h	221000 and 251000
6.66 µM, 72 h	251000 and 221000
0.03 µM, 72 h	9.55e+06 and 9.58e+06
33.33 µM, 48 h	1560 and 1550
0.66 µM, 48 h	4.35e+06 and 4.37e+06
0.33 µM, 72 h	9.58e+06 and 9.76e+06

Series 2
Organism: Sarcocystis neurona
Effect on: parasite growth
Tested at: 10 µM
Relative to: untreated
SMILES	log2 fold change
Fc1ccc([C@@H]2CCNC[C@H]2COc2ccc3c(c2)OCO3)cc1.O=C(O)/C=C\C(=O)O	-0.07
CCN1CC(CCN2CCOCC2)C(c2ccccc2)(c2ccccc2)C1=O.Cl (stereo not drawn)	0.33
COc1ccc(CN2CCN(C(c3ccc(F)cc3)c3ccc(F)cc3)CC2)c(OC)c1OC.Cl.Cl	-0.66
Nc1ccc2cn[nH]c2c1	0.32
Cl.NC[C@H](O)c1ccc(O)c(O)c1	0.38
O=c1ncc(F)c[nH]1	-0.38
COC(=O)C1=C(C)NC(C)=C(C(=O)O[C@@H]2CCCN(Cc3ccccc3)C2)[C@@H]1c1cccc([N+](=O)[O-])c1.Cl (racemic)	-0.2
COc1ccc2[n-]c([S+]([O-])Cc3ncc(C)c(OC)c3C)nc2c1.COc1ccc2[n-]c([S+]([O-])Cc3ncc(C)c(OC)c3C)nc2c1.[Mg+2] (stereo not drawn)	-0.49
CC(C)[N+](C)(CCOC(=O)C1c2ccccc2Oc2ccccc21)C(C)C.[Br-]	0.37
Nc1ncnc2c1ncn2[C@@H]1O[C@H](CO)C[C@H]1O	0.27

Series 3
Structure (SMILES): Cc1nc(Nc2ncc(C(=O)Nc3c(C)cccc3Cl)s2)cc(N2CCN(CCO)CC2)n1
Tested at: 0.5 µM
target	test	setting	how to read	remaining activity
Serine/threonine-protein kinase BRSK1 (BRSK1, Homo sapiens, UniProt Q8TDC3)	enzyme activity, inhibitor	–	relative to: control	103%
Cyclin-dependent kinase 7 (CDK7, Homo sapiens, UniProt P50613)	enzyme activity, inhibitor	–	relative to: control	112%
Calcium/calmodulin-dependent protein kinase type 1D (CAMK1D, Homo sapiens, UniProt Q8IU85)	enzyme activity, inhibitor	–	relative to: control	105%
Proto-oncogene tyrosine-protein kinase receptor Ret (RET, Homo sapiens, UniProt P07949)	enzyme activity, inhibitor	–	relative to: control	46%
NT-3 growth factor receptor (NTRK3, Homo sapiens, UniProt Q16288)	enzyme activity, inhibitor	–	relative to: control	65.3%
Protein-tyrosine kinase 2-beta (PTK2B, Homo sapiens, UniProt Q14289)	enzyme activity, inhibitor	–	relative to: control	97.7%
Serine/threonine-protein kinase Nek9 (NEK9, Homo sapiens, UniProt Q8TD19)	enzyme activity, inhibitor	–	relative to: control	98.3%
G protein-coupled receptor kinase 5 (GRK5, Homo sapiens, UniProt P34947)	enzyme activity, inhibitor	–	relative to: control	106%
Aurora kinase A (AURKA, Homo sapiens, UniProt O14965)	enzyme activity, inhibitor	–	relative to: control	93.2%
Mitogen-activated protein kinase 10 (MAPK10, Homo sapiens, UniProt P53779)	enzyme activity, inhibitor	–	relative to: control	100%
Myotonin-protein kinase (DMPK, Homo sapiens, UniProt Q09013)	enzyme activity, inhibitor	–	relative to: control	107%
Cyclin-dependent kinase 2, with cyclin A (CDK2, Homo sapiens, UniProt P24941)	enzyme activity, inhibitor	–	relative to: control	92.4%
Homeodomain-interacting protein kinase 3 (HIPK3, Homo sapiens, UniProt Q9H422)	enzyme activity, inhibitor	–	relative to: control	100%
Proto-oncogene tyrosine-protein kinase ROS (ROS1, Homo sapiens, UniProt P08922)	enzyme activity, inhibitor	–	relative to: control	88.9%
Mitogen-activated protein kinase kinase kinase 8 (MAP3K8, Homo sapiens, UniProt P41279)	enzyme activity, inhibitor	–	relative to: control	97.6%
Serine/threonine-protein kinase D1 (PRKD1, Homo sapiens, UniProt Q15139)	enzyme activity, inhibitor	–	relative to: control	98.9%
Casein kinase II subunit alpha' (CSNK2A2, Homo sapiens, UniProt P19784)	enzyme activity, inhibitor	–	relative to: control	103%
Rho-associated protein kinase 2 (ROCK2, Homo sapiens, UniProt O75116)	enzyme activity, inhibitor	–	relative to: control	90.1%
Dual specificity tyrosine-phosphorylation-regulated kinase 4 (DYRK4, Homo sapiens, UniProt Q9NR20)	enzyme activity, inhibitor	–	relative to: control	100%
STE20-like serine/threonine-protein kinase (SLK, Homo sapiens, UniProt Q9H2G2)	enzyme activity, inhibitor	–	relative to: control	81.1%
Activated CDC42 kinase 1 (TNK2, Homo sapiens, UniProt Q07912)	kinase activity	together with: ATP 10 µM	relative to: untreated	2.62%
Serine/threonine-protein kinase N2 (PKN2, Homo sapiens, UniProt Q16513)	enzyme activity, inhibitor	–	relative to: control	103%
Mitogen-activated protein kinase kinase kinase 2 (MAP3K2, Homo sapiens, UniProt Q9Y2U5)	enzyme activity, inhibitor	–	relative to: control	100%
Calcium/calmodulin-dependent protein kinase type 1G (CAMK1G, Homo sapiens, UniProt Q96NX5)	enzyme activity, inhibitor	–	relative to: control	104%

Series 4
SMILES: CC(C)n1cnc(-c2ccc(F)cc2)c1-c1ncc(C(=O)Nc2ccc(N3CCN(C)CC3)cc2)[nH]1
test	test system	setting	patients with productive cough [%]
phase 2a trial	idiopathic pulmonary fibrosis patients	30 mg once daily, grade 2 emergent event	0
–	human, idiopathic pulmonary fibrosis	60 mg once daily, trial, treatment-emergent	0
phase 2a trial	idiopathic pulmonary fibrosis patients	all arms, grade 5 emergent event	0
phase 2a trial	idiopathic pulmonary fibrosis patients	60 mg once daily, grade 1 emergent event	0
–	human, idiopathic pulmonary fibrosis	30 mg once daily, trial, treatment-emergent	0
phase 2a trial	idiopathic pulmonary fibrosis patients	60 mg once daily, grade 4 emergent event	0
phase 2a trial	idiopathic pulmonary fibrosis patients	60 mg once daily, grade 3 emergent event	0
phase 2a trial	idiopathic pulmonary fibrosis patients	30 mg once daily, grade 5 emergent event	0

Excerpt of the above (series 3):
target	test	setting	how to read	remaining activity
G protein-coupled receptor kinase 5 (GRK5, Homo sapiens, UniProt P34947)	enzyme activity, inhibitor	–	relative to: control	106%
Mitogen-activated protein kinase kinase kinase 2 (MAP3K2, Homo sapiens, UniProt Q9Y2U5)	enzyme activity, inhibitor	–	relative to: control	100%
Calcium/calmodulin-dependent protein kinase type 1G (CAMK1G, Homo sapiens, UniProt Q96NX5)	enzyme activity, inhibitor	–	relative to: control	104%
